Results pooled from the literature.
Numbered parts are unrelated; each lists some results of a single study.

Study 1 — technique: protein binding microarray; form: double-stranded DNA, one strand shown; matrix: in vitro; concentration: not given; relative to: not given; reading: higher = stronger binding
Target: Histone acetyltransferase KAT6A, winged helix 2, GST fusion (KAT6A, Homo sapiens, UniProt Q92794, residues 85-181)
Setting: 8-mer, flanks averaged, mean of 2 arrays, mostly near background
Target sequence (chain): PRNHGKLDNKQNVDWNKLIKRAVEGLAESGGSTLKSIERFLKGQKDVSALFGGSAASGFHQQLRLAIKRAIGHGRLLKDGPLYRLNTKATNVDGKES
With `ACCCCGCA` the E-score was 0.0563.
With `GAACCCTA` the E-score was 0.000505.
The E-score of `CTGCATTA` is reported as 0.0532.
`CTTTAAGC` has an E-score of 0.167.
For `ACTTACTC`, the E-score was -0.154.
For `GTAGGAGA`, the E-score was -0.206.

Study 2 — technique: universal PBM; form: double-stranded DNA, one strand shown; matrix: in vitro; concentration: 600 nM; reading: higher = stronger binding
Target: Sal-like protein 4, full length isoform A (SALL4, Homo sapiens, UniProt Q9UJQ4, residues 1-1053)
UniProt Q9UJQ4, sequence (whole entry, looked up): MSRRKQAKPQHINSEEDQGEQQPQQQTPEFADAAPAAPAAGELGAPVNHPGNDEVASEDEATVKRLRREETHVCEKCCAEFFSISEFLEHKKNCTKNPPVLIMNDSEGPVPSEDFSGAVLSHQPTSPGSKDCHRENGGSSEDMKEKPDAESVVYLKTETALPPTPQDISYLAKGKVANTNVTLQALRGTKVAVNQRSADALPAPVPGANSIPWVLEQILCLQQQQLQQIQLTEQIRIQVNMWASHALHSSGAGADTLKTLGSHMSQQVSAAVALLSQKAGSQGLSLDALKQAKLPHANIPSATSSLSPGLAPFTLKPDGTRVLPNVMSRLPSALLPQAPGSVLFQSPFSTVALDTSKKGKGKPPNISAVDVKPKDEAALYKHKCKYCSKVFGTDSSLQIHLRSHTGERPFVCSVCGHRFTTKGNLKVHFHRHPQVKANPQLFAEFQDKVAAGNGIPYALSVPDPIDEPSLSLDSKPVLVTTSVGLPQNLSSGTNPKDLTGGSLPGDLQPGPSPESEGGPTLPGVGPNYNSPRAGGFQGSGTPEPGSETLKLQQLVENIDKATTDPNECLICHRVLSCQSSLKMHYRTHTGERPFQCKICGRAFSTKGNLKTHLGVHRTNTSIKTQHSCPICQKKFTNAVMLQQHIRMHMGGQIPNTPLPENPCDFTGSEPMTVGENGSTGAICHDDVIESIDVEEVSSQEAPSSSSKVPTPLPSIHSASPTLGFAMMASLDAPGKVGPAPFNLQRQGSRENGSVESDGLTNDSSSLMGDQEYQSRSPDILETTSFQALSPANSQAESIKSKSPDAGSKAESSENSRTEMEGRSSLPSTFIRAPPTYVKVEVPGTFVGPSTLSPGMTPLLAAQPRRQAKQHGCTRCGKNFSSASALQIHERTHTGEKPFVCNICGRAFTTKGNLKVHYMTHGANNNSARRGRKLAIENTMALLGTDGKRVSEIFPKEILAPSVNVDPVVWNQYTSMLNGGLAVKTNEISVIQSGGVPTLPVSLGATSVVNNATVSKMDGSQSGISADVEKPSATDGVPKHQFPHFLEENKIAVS
Setting: 8-mer, flanks averaged, mean of replicates
`ACCGACCG` has an E-score of -0.227.
With `CAACGCGG` the E-score was -0.246.
The E-score of `AGCAGACA` is reported as -0.105.
`CGATCAAG` gave an E-score of -0.0605.
With `AGCCGACG` the E-score was -0.226.
For `GCCCGTGA`, the E-score was -0.259.

Study 3 — technique: protein-binding microarray; form: double-stranded DNA, one strand shown; matrix: in vitro; concentration: 2200 nM top; setting: 60-bp whole probe; with: salmon DNA 0.4 mg/ml; relative to: random background probes; reading: higher = stronger binding; constant ends, left off below: GCCTAGCAC … GTCTTGATTCGCTTGACGCTGCTG
Target: Interferon regulatory factor 7, full length, phosphomimetic (IRF7, Homo sapiens, UniProt Q92985, residues 1-503, S471D/S472D/S475D/S476D/S477D/S483D/S484D/S487D)
UniProt Q92985, sequence (whole entry, unmodified, looked up): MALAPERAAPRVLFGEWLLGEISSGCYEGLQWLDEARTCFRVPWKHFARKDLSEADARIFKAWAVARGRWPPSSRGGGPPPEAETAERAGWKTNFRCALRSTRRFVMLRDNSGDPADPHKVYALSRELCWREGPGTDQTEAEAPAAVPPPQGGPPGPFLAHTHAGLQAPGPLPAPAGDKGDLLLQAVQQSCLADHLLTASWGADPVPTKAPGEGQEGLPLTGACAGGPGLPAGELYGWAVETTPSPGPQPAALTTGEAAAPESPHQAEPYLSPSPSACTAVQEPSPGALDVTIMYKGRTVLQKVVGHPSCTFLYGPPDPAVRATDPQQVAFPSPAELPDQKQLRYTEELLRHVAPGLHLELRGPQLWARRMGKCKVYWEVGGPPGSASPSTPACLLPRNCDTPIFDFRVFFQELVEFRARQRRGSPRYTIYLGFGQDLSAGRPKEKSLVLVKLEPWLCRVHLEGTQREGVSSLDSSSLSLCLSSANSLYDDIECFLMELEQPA
`GTGGTTTTCATTATTGCTTCGTGCTAG` — result for “fitted relative affinity”: 2.65 z-score.
For `TACAGGTTCTCTTTTATTTTGTGCTAG`, “fitted relative affinity” read 1.15 z-score.
`TTAGAACTGACACTGGATTAGTGCTAG` — result for “fitted relative affinity”: -0.358 z-score.
Under “fitted relative affinity”, `AGACAGTTGAGTTCTGTTGCAGTGCTA` is recorded as -0.128 z-score.
`GAAGATCTCAGTTTCGAGACGTGCTAG` — result for “fitted relative affinity”: 3.24 z-score.

Single results of other studies
The fold induction of `PhoQ, residues 284 288 289 292 302 303 SASVAL` is reported as 1.35 (PhoP, residues 12 14 15 18 19 STWGI (Escherichia coli, UniProt P23836); Sort-seq, refers to: YFP reporter; E. coli; PhoQ-PhoP variant library, with: 10 µM Mg2+; relative to: high Mg2+ state, higher = stronger signaling).

A few entries again (study 3):
`TTAGAACTGACACTGGATTAGTGCTAG` — result for “fitted relative affinity”: -0.358 z-score.
Under “fitted relative affinity”, `AGACAGTTGAGTTCTGTTGCAGTGCTA` is recorded as -0.128 z-score.
`GAAGATCTCAGTTTCGAGACGTGCTAG` — result for “fitted relative affinity”: 3.24 z-score.
